Assay results of several laboratories.
Lines come from different studies, so protocols differ. Numbers after ± are the reported error.
YWHAZ: 14-3-3 protein zeta/delta (YWHAZ, Homo sapiens, UniProt P63104)

| SMILES | target | test | system | conditions | how to read | endpoint | value |
| --- | --- | --- | --- | --- | --- | --- | --- |
| CC[C@H](C)[C@H](NC(=O)[C@@H]1CSSC[C@H](NC(=O)[C@@H](NC(C)=O)[C@@H](C)CC)C(=O)N[C@@H](C(C)C)C(=O)N[C@@H](Cc2cn(C)c3ccccc23)C(=O)N[C@@H](CCC(N)=O)C(=O)N[C@@H](CC(=O)O)C(=O)N[C@@H](Cc2c[nH]c3ccccc23)C(=O)N(C)CC(=O)N[C@@H](C)C(=O)N[C@@H](Cc2c[nH]cn2)C(=O)N[C@@H](CCCNC(=N)N)C(=O)N1)C(N)=O | Complement C3 (Homo sapiens, UniProt P01024) | ITC | PBS | concentration not given, pH 7.4, 25 °C | – | −TΔS of binding | 2.9 kcal/mol |
| C=C1CCN2C(=O)COc3cccc(c3)C(CCc3ccc(OC)c(OC)c3)OC(=O)C3CCCCN3C(=O)C(=O)C(C)(C)COC(=O)C(C)(C)NC(=O)C2C1 (centres unmarked) | FKBP1A/MAPRE1 (Homo sapiens, UniProt P62942+Q15691) | FKBP12-MAPRE1 proximity, TR-FRET | – | – | reference: DMSO | Emax | 135% |
| Cc1cc(N)nc(C[C@@H]2CNC[C@@H]2OCCCCCc2cc(F)cc(Cl)c2)c1 | Nos2 (Mus musculus, UniProt P29477) | enzyme activity, inhibitor | – | – | reference: Ki Nos2 over Ki nNOS | selectivity ratio | 461 |
| O=C(NC1CCCCC1)C(c1cccnc1)N(C(=O)CCl)c1ccc(F)cc1 (racemic) | GSTO1 (Homo sapiens, UniProt P78417) | competitive ABPP | MDA-MB-435 | 1 µM, 12 h, 10% serum | – | inhibition | 95% |
| Cc1nc(N=Nc2ccc(S(=O)(=O)O)cc2S(=O)(=O)O)c(COP(=O)(O)O)c(C=O)c1O | Nucleoside triphosphate diphosphohydrolase 3 (Rattus norvegicus, UniProt A6I415) | capillary electrophoresis | – | – | reference: NTPDase1 and NTPDase2 over NTPDase3 | Ki selectivity ratio | 15 fold |
| CC[C@H](C)[C@H](NC(C)=O)C(=O)N[C@H]1CSSC[C@@H](C(=O)N[C@H](C(N)=O)[C@@H](C)O)NC(=O)[C@H](CCCNC(=N)N)NC(=O)[C@H](Cc2c[nH]cn2)NC(=O)[C@@H]2CCCN2C(=O)CNC(=O)[C@H](Cc2c[nH]c3ccccc23)NC(=O)[C@H](CC(=O)O)NC(=O)[C@H](CCC(N)=O)NC(=O)[C@H](Cc2cn(C)c3ccccc23)NC(=O)[C@H](C(C)C)NC1=O | Complement C3, C3b fragment (Homo sapiens, UniProt P01024) | SPR | – | pH 7.4, 25 °C | – | koff | 0.03 ± 0.01 s⁻¹ |
| CC(C)=CCC[C@](C)(O)[C@H]1CC[C@]2(C)[C@@H]1[C@H](O)C[C@@H]1[C@@]3(C)CC[C@H](O)C(C)(C)[C@@H]3CC[C@]12C | YWHAZ | isothermal titration calorimetry | – | concentration not given | – | binding entropy | 18.7 cal/mol/K |
| O=C([O-])CN(CCN(CC(=O)[O-])Cc1cc(CCC(=O)NCCCCCC(=O)NCCCC[C@H](NC(=O)N[C@@H](CCC(=O)O)C(=O)O)C(=O)O)ccc1O)Cc1cc(CCC(=O)O)ccc1[O-].[68Ga+3] | FOLH1 (Homo sapiens, UniProt Q04609) | PET/CT | human, liver metastasis | – | – | SUVmax | ~9 |
| O=C(COc1ccc2ccccc2c1)N[C@@H](Cc1cn(CCNC(=O)c2ccc(S[C@@H]3O[C@H](CO)[C@H](O)[C@H](O)[C@H]3O)cc2)nn1)C(=O)NCCO | lecA (Pseudomonas aeruginosa, UniProt Q05097) | binding, isothermal titration calorimetry | – | 25 °C | – | −TΔS | 2.25 ± 0.191 kcal/mol |
| CC[C@H](C)[C@H](NC(=O)[C@@H](N)CCCCN)C(=O)N1CCC[C@H]1C(=O)N[C@@H](Cc1ccc(O)cc1)C(=O)N[C@@H](Cc1ccccc1)C(=O)N[C@@H](Cc1c[nH]cn1)C(=O)N[C@@H](C)C(=O)NCC(=O)NCC(=O)N[C@@H](CO)C(=O)N[C@@H](CCCCN)C(=O)N[C@@H](CS)C(=O)N[C@@H](CO)C(=O)N[C@H](C(=O)N[C@@H](Cc1c[nH]c2ccccc12)C(=O)N1CCC[C@H]1C(=O)N[C@@H](CC(C)C)C(=O)N1CCC[C@H]1C(=O)N[C@@H](CCC(N)=O)C(=O)N1CCC[C@H]1C(=O)N[C@@H](CO)C(=O)O)[C@@H](C)OP(=O)(O)O | YWHAZ | binding, ITC | – | pH 7.4, 37 °C, with: phosphorylated PRLR peptide | – | ΔG | -9.417 ± 0.0717 kcal/mol |
| NC[C@@H]1O[C@H](O[C@H]2[C@@H](O)[C@H](O[C@@H]3[C@@H](O)[C@H](N)C[C@H](N)[C@H]3O[C@H]3O[C@H](CN)[C@@H](O)[C@H](O)[C@H]3N)O[C@@H]2CO)[C@H](N)[C@@H](O)[C@@H]1O | poly(dA)·2poly(dT) triplex | ITC | – | concentration not given, pH 6.8, 20 °C, KCl 150 mM | – | binding enthalpy | -7.5 ± 0.2 kcal/mol |

Repeated from above:
| SMILES | target | test | system | conditions | how to read | endpoint | value |
| --- | --- | --- | --- | --- | --- | --- | --- |
| CC[C@H](C)[C@H](NC(=O)[C@@H]1CSSC[C@H](NC(=O)[C@@H](NC(C)=O)[C@@H](C)CC)C(=O)N[C@@H](C(C)C)C(=O)N[C@@H](Cc2cn(C)c3ccccc23)C(=O)N[C@@H](CCC(N)=O)C(=O)N[C@@H](CC(=O)O)C(=O)N[C@@H](Cc2c[nH]c3ccccc23)C(=O)N(C)CC(=O)N[C@@H](C)C(=O)N[C@@H](Cc2c[nH]cn2)C(=O)N[C@@H](CCCNC(=N)N)C(=O)N1)C(N)=O | Complement C3 (Homo sapiens, UniProt P01024) | ITC | PBS | concentration not given, pH 7.4, 25 °C | – | −TΔS of binding | 2.9 kcal/mol |
